Assay results collected from several papers.
Lines come from different studies, so protocols differ. Numbers after ± are the reported error.
Pick1 PDZ domain: PRKCA-binding protein, PDZ domain (Pick1, Rattus norvegicus, UniProt Q9EP80)
VHL with elongin B, C: von Hippel-Lindau disease tumor suppressor, with elongin B, C (VHL, Homo sapiens, UniProt P40337)
Sigmar1: Sigma non-opioid intracellular receptor 1 (Sigmar1, Rattus norvegicus, UniProt Q9R0C9)
PRKCA: Protein kinase C alpha type (PRKCA, Homo sapiens, UniProt P17252)
MAPK8: Mitogen-activated protein kinase 8 (MAPK8, Homo sapiens, UniProt P45983)
Glutamate receptor ionotropic, kainate 1: Glutamate receptor ionotropic, kainate 1 (Rattus norvegicus, UniProt P22756)
PRKCD: Protein kinase C delta type (PRKCD, Homo sapiens, UniProt Q05655)
FOLH1: Glutamate carboxypeptidase 2 (FOLH1, Homo sapiens, UniProt Q04609)

Sequences of proteins named here, by UniProt entry; tags and fusion partners are left off. A change or cut given only in a name is not applied to a line headed by its entry. Residues count along the entry.
UniProt Q9EP80, whole entry: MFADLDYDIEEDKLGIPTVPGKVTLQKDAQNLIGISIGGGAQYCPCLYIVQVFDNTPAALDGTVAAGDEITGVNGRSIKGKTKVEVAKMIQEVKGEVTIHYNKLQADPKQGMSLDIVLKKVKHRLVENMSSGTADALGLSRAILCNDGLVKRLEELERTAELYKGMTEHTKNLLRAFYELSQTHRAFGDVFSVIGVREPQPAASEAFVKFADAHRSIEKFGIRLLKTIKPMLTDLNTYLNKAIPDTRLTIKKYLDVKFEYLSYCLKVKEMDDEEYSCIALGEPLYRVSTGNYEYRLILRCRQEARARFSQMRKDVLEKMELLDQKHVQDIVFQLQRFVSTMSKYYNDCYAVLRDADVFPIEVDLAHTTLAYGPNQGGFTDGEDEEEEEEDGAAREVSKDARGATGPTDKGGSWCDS
UniProt Q9R0C9, whole entry: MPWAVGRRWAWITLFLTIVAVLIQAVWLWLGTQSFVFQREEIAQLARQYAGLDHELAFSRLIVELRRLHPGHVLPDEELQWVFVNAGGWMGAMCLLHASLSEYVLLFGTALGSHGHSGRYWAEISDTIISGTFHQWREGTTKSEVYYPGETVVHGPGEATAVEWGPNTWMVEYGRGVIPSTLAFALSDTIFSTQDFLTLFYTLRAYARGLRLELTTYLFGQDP
UniProt P45983, whole entry: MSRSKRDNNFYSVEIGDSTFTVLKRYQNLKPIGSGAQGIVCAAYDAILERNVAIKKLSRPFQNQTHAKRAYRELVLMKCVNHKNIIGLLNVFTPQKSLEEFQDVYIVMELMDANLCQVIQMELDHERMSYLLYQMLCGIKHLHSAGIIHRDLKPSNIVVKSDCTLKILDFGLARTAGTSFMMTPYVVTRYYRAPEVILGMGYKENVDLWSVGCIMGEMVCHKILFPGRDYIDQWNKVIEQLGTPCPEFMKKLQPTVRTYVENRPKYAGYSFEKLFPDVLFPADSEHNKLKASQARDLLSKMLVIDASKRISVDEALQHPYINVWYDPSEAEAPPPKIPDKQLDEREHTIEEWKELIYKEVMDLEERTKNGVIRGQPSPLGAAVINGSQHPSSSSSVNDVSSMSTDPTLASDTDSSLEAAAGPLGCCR
UniProt P45983, 1-384 isoform 3: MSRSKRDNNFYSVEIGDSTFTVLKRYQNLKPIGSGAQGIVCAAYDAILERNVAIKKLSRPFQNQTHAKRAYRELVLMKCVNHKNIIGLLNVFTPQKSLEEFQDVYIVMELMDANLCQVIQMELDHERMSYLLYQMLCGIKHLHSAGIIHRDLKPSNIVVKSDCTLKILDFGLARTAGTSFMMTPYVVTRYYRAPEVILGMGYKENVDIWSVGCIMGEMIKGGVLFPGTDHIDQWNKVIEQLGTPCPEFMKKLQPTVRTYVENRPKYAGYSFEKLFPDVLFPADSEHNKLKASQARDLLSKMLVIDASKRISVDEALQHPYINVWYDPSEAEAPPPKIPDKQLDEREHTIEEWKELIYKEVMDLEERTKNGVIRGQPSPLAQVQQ
UniProt P22756, 31-920 isoform 4 limits assumed: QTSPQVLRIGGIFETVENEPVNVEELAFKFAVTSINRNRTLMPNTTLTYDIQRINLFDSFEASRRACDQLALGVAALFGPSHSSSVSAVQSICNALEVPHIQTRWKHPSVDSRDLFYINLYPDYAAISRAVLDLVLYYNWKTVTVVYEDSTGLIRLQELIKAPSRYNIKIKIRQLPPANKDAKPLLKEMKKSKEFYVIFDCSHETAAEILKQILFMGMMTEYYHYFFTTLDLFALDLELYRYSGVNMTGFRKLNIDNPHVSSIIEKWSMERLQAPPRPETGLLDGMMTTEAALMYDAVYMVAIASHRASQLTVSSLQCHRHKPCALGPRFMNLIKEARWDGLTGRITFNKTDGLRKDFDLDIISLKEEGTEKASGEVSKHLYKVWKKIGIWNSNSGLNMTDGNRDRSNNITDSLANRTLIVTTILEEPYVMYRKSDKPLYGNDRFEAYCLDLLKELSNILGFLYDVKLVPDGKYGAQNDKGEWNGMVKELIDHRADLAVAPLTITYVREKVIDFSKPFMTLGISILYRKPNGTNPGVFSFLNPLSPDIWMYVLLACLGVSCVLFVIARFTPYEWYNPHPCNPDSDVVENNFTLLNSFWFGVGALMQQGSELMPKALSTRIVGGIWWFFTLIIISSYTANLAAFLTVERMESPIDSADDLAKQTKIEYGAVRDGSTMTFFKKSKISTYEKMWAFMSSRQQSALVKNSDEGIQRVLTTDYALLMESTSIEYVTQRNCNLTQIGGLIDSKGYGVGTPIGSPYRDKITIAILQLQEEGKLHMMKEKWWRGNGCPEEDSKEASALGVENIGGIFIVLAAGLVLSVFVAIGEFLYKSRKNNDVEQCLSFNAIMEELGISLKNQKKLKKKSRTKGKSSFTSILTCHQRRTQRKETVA
UniProt Q05655, whole entry: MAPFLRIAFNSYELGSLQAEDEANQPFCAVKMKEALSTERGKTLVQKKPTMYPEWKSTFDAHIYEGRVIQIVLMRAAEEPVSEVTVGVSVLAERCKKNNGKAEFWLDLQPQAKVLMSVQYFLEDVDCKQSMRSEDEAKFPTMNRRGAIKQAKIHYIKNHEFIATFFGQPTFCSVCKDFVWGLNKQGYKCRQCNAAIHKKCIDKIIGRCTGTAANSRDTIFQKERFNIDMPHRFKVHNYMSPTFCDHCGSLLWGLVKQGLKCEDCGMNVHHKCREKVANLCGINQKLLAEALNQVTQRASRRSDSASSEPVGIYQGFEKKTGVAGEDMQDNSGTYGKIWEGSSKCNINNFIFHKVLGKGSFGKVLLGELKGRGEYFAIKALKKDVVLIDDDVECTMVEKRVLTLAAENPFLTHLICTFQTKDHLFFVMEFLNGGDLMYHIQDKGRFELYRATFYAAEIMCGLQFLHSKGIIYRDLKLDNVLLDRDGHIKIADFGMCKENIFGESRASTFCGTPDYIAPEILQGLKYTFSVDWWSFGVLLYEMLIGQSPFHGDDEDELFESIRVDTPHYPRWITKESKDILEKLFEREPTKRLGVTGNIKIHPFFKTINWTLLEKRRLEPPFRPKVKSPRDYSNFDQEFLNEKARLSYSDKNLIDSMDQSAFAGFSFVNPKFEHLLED
UniProt Q01959, whole entry: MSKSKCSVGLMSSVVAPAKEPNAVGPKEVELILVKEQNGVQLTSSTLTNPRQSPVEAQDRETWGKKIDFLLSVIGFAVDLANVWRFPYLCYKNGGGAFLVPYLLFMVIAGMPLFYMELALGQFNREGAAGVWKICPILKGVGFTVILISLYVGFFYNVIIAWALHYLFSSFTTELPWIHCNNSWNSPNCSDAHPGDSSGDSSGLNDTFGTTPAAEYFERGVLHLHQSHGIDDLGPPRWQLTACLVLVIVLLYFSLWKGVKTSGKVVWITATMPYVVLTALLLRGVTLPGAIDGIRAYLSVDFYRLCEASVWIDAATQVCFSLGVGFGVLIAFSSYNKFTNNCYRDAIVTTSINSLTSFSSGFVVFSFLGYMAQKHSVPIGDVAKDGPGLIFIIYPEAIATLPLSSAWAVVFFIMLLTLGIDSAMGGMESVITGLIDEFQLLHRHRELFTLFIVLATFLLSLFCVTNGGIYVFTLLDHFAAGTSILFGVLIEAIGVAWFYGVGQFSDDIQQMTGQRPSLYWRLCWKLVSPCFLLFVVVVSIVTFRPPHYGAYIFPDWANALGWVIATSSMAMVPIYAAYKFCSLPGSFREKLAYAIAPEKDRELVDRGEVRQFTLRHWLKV
UniProt Q16539, whole entry: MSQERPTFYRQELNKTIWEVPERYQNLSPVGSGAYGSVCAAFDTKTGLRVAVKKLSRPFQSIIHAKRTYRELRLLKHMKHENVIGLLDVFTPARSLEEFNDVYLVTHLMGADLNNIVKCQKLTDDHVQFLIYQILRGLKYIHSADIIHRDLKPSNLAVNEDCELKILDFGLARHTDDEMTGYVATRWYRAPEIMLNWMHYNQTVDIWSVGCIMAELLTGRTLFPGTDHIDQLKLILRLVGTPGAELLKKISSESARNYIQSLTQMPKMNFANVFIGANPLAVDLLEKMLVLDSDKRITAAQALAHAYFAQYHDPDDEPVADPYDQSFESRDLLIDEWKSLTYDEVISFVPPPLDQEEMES
UniProt P30419, whole entry: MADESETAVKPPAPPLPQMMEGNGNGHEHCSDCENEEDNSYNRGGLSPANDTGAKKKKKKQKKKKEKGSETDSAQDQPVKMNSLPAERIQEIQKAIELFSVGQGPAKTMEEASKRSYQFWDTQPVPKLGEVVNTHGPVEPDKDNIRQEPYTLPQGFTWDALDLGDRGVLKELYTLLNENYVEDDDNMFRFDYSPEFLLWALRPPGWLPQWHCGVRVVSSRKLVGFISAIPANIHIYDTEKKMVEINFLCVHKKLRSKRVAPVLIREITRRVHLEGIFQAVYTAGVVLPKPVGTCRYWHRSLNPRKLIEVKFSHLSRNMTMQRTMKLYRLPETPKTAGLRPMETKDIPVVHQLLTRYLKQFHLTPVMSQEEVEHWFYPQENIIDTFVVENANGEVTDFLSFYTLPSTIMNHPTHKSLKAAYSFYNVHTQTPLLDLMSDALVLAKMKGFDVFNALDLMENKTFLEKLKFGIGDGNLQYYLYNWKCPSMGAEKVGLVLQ
UniProt Q07440, whole entry P104K/C113S, looked up: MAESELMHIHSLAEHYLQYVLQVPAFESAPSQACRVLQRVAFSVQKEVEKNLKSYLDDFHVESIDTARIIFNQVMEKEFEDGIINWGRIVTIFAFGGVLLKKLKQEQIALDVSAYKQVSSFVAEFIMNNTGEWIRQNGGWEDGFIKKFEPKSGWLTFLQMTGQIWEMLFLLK
UniProt P14174, 2-115 limits assumed: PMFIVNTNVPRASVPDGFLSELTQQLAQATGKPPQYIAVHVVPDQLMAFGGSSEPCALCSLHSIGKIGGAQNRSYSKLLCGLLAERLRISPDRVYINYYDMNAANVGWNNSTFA
UniProt P47900, whole entry: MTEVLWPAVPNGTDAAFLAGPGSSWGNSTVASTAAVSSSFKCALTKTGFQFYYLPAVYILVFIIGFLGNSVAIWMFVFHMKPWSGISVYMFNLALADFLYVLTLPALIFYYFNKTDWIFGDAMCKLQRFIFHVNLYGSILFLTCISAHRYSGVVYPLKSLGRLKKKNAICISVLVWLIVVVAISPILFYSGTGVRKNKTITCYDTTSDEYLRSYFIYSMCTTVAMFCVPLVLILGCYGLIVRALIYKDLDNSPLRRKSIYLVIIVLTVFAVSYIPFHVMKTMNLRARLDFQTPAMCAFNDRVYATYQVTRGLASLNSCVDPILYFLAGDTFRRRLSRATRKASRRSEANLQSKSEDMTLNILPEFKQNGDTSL
UniProt P21761, whole entry: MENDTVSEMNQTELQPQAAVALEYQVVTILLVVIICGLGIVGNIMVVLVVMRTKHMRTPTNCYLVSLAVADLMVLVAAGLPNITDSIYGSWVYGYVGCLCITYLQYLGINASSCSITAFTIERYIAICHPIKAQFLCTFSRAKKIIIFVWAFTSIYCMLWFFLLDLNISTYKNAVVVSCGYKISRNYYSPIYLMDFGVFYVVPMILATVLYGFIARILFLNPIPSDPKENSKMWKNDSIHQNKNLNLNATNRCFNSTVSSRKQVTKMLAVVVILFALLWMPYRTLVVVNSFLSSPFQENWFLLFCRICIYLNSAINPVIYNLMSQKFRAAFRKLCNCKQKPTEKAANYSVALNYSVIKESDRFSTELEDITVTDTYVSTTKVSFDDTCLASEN
UniProt Q9NYA1, 1-470 isoform 2: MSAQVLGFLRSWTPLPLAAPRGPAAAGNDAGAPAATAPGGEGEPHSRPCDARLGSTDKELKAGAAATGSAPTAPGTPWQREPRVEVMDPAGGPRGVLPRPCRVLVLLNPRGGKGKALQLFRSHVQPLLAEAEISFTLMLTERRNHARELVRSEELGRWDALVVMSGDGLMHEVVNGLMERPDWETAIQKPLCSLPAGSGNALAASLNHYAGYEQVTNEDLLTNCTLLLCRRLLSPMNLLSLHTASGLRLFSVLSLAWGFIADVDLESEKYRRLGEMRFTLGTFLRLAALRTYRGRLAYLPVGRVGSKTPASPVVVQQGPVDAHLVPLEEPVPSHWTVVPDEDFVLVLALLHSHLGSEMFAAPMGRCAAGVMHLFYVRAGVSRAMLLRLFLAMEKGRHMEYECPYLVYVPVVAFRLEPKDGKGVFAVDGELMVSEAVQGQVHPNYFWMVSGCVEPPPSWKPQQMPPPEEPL
UniProt Q60492, whole entry: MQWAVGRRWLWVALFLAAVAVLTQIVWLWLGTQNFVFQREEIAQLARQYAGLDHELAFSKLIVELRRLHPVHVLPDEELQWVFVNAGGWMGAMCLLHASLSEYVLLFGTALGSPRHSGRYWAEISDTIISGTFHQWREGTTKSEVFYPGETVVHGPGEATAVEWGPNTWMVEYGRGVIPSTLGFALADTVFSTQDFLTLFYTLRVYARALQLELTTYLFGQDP

Compound | tested on | assay | test system | conditions | measurement | result
CCCSc1nc(N[C@@H]2C[C@H]2c2ccc(F)c(F)c2)c2nnn([C@@H]3C[C@H](O)[C@@H](O)[C@H]3O)c2n1 | SLC6A3 (Homo sapiens, UniProt Q01959) | binding | CHO | – | Ki | 800 nM
COC(=O)[C@]1(C)C=C(C(=O)OCc2ccccc2)C(=O)CC1 | MAPK14 (Homo sapiens, UniProt Q16539) | D-peptide displacement, fluorescence polarization | – | – | Ki | 5500 ± 600 nM
O=C(OCc1ccccc1)c1ccccc1OC1CCNCC1 | NMT1 (Homo sapiens, UniProt P30419) | enzyme activity, inhibitor, CPM fluorescence | – | – | Ki | > 100000 nM
CCOC(=O)NC(=O)/C(C#N)=C/c1ccc(OC)cc1 | Pick1 PDZ domain | binding, fluorescence polarization | – | together with: labelled hDAT C-terminal peptide | Ki | 89000 ± 20000 nM
Cc1ncsc1-c1ccc(CNC(=O)[C@@H]2C[C@@H](O)CN2C(=O)c2cccc(C#N)c2)cc1 | VHL with elongin B, C | inhibitor, fluorescence polarization | VHL-elonginB-elonginC complex | 1% DMSO, together with: FAM-DEALA-Hyp-YIPD peptide | Ki | 8100 nM
COc1ccc(CN(C)CCO/N=C(\C)c2ccc(C(F)(F)F)cc2)cc1 | Sigmar1 | radioligand binding | rat | – | Ki | 38.2 ± 2.38 nM
CCCCCCCCC(CCCCCCC=CCCCCCCC(CCCCCCCC)C(=O)OCC1(CO)CC(=C(C)C)C(=O)O1)C(=O)OCC1(CO)CC(=C(C)C)C(=O)O1 (racemic) | PRKCA | binding, [3H]PDBu competition | – | together with: phosphatidylserine 100 µg/mL | Ki | 48.5 ± 6.3 nM
CCOc1cc(C(C)(C)C)ccc1C1=N[C@H](c2ccc(Cl)cc2)[C@H](c2ccc(Cl)cc2)N1C(=O)N1CCN(CC(=O)NCCOCCOCCOCCNC(=O)CN2CCN(C(=O)N3C(c4ccc(C(C)(C)C)cc4OCC)=N[C@H](c4ccc(Cl)cc4)[C@@H]3c3ccc(Cl)cc3)CC2=O)C(=O)C1 | E3 ubiquitin-protein ligase Mdm2, with p53 (MDM2, Homo sapiens, UniProt Q00987) | binding, fluorescence polarization competition | – | – | Ki | 9900 ± 2300 nM
Cc1cc(NC(=O)c2cccc(NC(=O)C3=CC(C)(C)CC3=O)c2)ccc1Nc1nccc(-c2cccnc2)n1 | MAPK8 | SPR two-step reversible model | – | – | Ki | 10.7 nM
COc1ccccc1N=Nc1c(O)ccc2cc(S(=O)(=O)O)ccc12 | Bcl-2-related protein A1 (Mus musculus, UniProt Q07440, C113S/P104K) | binding, inhibitor, fluorescence polarization | – | together with: FITC-labelled Noxa peptide | Ki | > 20300 nM
C=CCC1(C(=O)OC)C=C(C(=O)OC(C)(C)C)C(=O)CC1 (stereo not shown) | MAPK8 | docking peptide binding, competitive inhibitor, fluorescence polarization | – | together with: labelled JIP1 peptide | Ki | 2900 ± 700 nM
CCOC(=O)NC(=O)/C(C#N)=C/c1ccc([N+](=O)[O-])c(Br)c1 | Pick1 PDZ domain | binding, fluorescence polarization | – | together with: labelled hDAT C-terminal peptide | Ki | 26000 ± 2300 nM
COC(=O)C1(C)C=C(C(=O)Nc2ccccc2)C(=O)CC1 (stereo not shown) | MAPK8 | D-peptide displacement, fluorescence polarization | – | – | Ki | > 200000 nM
O=C(O)c1cc(C(=O)N2CCC[C@H]2C(=O)O)cc([C@H]2CCN[C@@H]2C(=O)O)c1 | NMDA receptor (rat) | binding, radioligand binding | rat cortical synaptosomes | together with: [3H]CGP39653 | Ki | 1100 nM
CCCCN(C(=O)OCC)C(=O)/C(C#N)=C/c1ccc(Cl)c(Cl)c1 | Pick1 PDZ domain | binding, fluorescence polarization | – | together with: labelled hDAT C-terminal peptide | Ki | 19000 ± 4700 nM
COCCOc1cccc(Oc2cccc3nc(-c4cn(-c5ccc(O)c(F)c5)nn4)ccc23)c1 | MIF (Homo sapiens, UniProt P14174) | tautomerase activity, inhibitor | – | together with: HPP substrate | Ki | < 100 nM
FC1CCN(c2ccc3sc(-c4cccnc4)cc3n2)C1 (stereo not shown) | Alpha-synuclein, PD brain aggregates (SNCA, Homo sapiens, UniProt P37840) | binding | Parkinson's disease brain homogenate | together with: [3H]asyn-44 1 nM | Ki | 29.6 nM
CNc1nc(C#CCCC(=O)O)nc2c1ncn2[C@H]1C[C@H](OP(=O)(O)O)[C@]2(COP(=O)(O)O)C[C@H]12 | P2Y purinoceptor 1 (P2RY1, Homo sapiens, UniProt P47900) | binding, radioligand binding | Sf9 cell membranes | 30 min, 4 °C, together with: iodinated P2Y1 antagonist radioligand | Ki | 23 ± 3 nM
Cc1ncsc1-c1ccc(CNC(=O)[C@@H]2C[C@@H](O)CN2C(=O)c2cccc(Br)c2)cc1 | VHL with elongin B, C | inhibitor, fluorescence polarization | VHL-elonginB-elonginC complex | 1% DMSO, together with: FAM-DEALA-Hyp-YIPD peptide | Ki | 19900 nM
CCOC(=O)C1=CC(C(=O)OCC)(c2ccc(Br)cc2)CCC1=O (stereo not shown) | MAPK8 | docking peptide binding, competitive inhibitor, fluorescence polarization | – | together with: labelled JIP1 peptide | Ki | 8100 ± 3200 nM
Cn1cnc(C[C@H](NC(=O)[C@@H]2CCC(=O)N2)C(=O)N2CCC[C@H]2C(N)=O)c1 [isotope labelled] | Thyrotropin-releasing hormone receptor (Mus musculus, UniProt P21761) | radioligand binding, competition binding | HEK293 cells | 1 h, 37 °C, together with: [3H][N(1)-methyl-His]TRH | Ki | 3 nM
CCCCCCCCCCCCc1ccc(C(=O)NC2(C(=N)N)CC2)cc1 | SPHK1 (Homo sapiens, UniProt Q9NYA1) | inhibitor, TLC | – | – | Ki | 300 nM

Compound | tested on | assay | test system | conditions | measurement | result
N=C(N)NCCC[C@H](NC(=O)c1cc(C(=O)O)cc([C@H]2CCN[C@@H]2C(=O)O)c1)C(=O)O | Grik2 (Rattus norvegicus, UniProt P42260) | binding, radioligand binding | Sf9 membranes | homomeric receptor, together with: [3H]kainate | Ki | 10000 to 50000 nM
COC(=O)[C@@H]1C(c2nc3cc(C)ccc3o2)=Cc2cc3c(cc2[C@H]1c1cc(OC)c(OC)c(OC)c1)OCO3 | Leishmania infantum | iRFP fluorescence | mouse splenocytes infected, amastigote, iRFP, ex vivo splenic explant | 48 h | EC50 | 9700 ± 1800 nM
CC(C)[C@H](NC(=O)c1cc(C(=O)O)cc([C@H]2CCN[C@@H]2C(=O)O)c1)C(=O)O | NMDA receptor (rat) | binding, radioligand binding | rat cortical synaptosomes | together with: [3H]CGP39653 | Ki | 3400 nM
CCCCCCCCCCCCCC[C@@H](O)[C@@H](O)[C@H](CO[C@H]1O[C@H](CO)[C@H](O)[C@H](O)[C@H]1O)NC(=O)CCCCCCCCCCc1ccccc1 | Cd1d1, dimeric Ig fusion (Mus musculus, UniProt P11609) | binding, competitive microarray binding | – | together with: printed glycolipid 100 µM | Ki | 1600 ± 900 nM
CC(C)C[C@H](NC(=O)c1cc(C(=O)O)cc([C@H]2CCN[C@@H]2C(=O)O)c1)C(=O)O | Glutamate receptor ionotropic, kainate 1 | binding, radioligand binding | Sf9 membranes | homomeric receptor, together with: [3H]SYM2081 | Ki | 11700 ± 1400 nM
CCC(NC(=O)C(CC(C)C)NC(=O)Cc1ccncc1)C(=O)C(=O)NCc1cc(OC)cc(OC)c1 (stereo not shown) | Calpain-2 catalytic subunit (Homo sapiens, UniProt P17655) | enzyme activity, inhibitor, Suc-Leu-Tyr-AMC hydrolysis | recombinant enzyme | – | Ki | 43 ± 11 nM
COc1ccc(N2CC(=O)C(c3nc(C)cs3)=C2N)c(OC)c1 | ancestral FSP1 | coenzyme Q1 reduction, competitive inhibitor, NADH oxidation | – | pH 7.2, together with: NADH, coenzyme Q1 | Ki | 446 ± 70 nM
CN(C)c1ccc(C#CCOC(=O)[C@@]2(C)C=C(C(=O)OC(C)(C)C)C(=O)CC2)cc1 | MAPK8 | D-peptide displacement, fluorescence polarization | – | – | Ki | 2400 ± 900 nM
CCCCCCCCC(CCCCCCCCC=CCCCCCCCCC(CCCCCCCC)C(=O)OCC1(CO)CC(=C(C)C)C(=O)O1)C(=O)OCC1(CO)CC(=C(C)C)C(=O)O1 (racemic) | PRKCD | binding, [3H]PDBu competition | – | together with: phosphatidylserine 100 µg/mL | Ki | 12.3 ± 2.1 nM
COc1cccc(-c2c(C#N)c(N)nc(SCc3ncc[nH]3)c2C#N)c1 | ADORA2A (Homo sapiens, UniProt P29274) | radioligand displacement | HEK293 membranes | together with: 0.8 nM [3H]ZM241385 | Ki | 38 ± 5.5 nM
O[C@@H](c1ccc(F)cc1)C(F)(F)CCN1CCC(O)(c2ccc(Cl)cc2)CC1 (racemic) | SIGMAR1 (Cavia porcellus, UniProt Q60492) | – | – | – | Ki | 3.6 ± 0.8 nM
CCCCCCCCC(CCCCCC=CCCCCCC(CCCCCCCC)C(=O)OCC1(CO)CC(=C(C)C)C(=O)O1)C(=O)OCC1(CO)CC(=C(C)C)C(=O)O1 (racemic) | PRKCD | binding, [3H]PDBu competition | – | together with: phosphatidylserine 100 µg/mL | Ki | 13.2 ± 1.9 nM
O=C(CNc1ccc2ccccc2c1)N/N=C/c1ccc(O)cc1O | CFTR (Homo sapiens, UniProt P13569) | apical chloride current, inhibitor | FRT cells expressing CFTR | basolateral membrane permeabilised | Ki | 25000 to 50000 nM
CC[N+]1=C(C=CC=CC=C2N(CCCCCC(=O)NCCOCCOCC(=O)NCCCC[C@H](NC(=O)N[C@@H](CCC(=O)O)C(=O)O)C(=O)O)c3ccc4c(S(=O)(=O)O)cc(S(=O)(=O)O)cc4c3C2(C)C)C(C)(C)c2c1ccc1c(S(=O)(=O)O)cc(S(=O)(=O)[O-])cc21 | FOLH1 | enzyme activity, inhibitor | – | compound in water, together with: [3H]NAAG 30 nM | Ki | 0.05 ± 0.02 nM
O=C(O)c1cc(C(=O)N[C@@H](CS)C(=O)O)cc([C@H]2CCN[C@@H]2C(=O)O)c1 | NMDA receptor (rat) | binding, radioligand binding | rat cortical synaptosomes | together with: [3H]CGP39653 | Ki | 1000 to 5000 nM
CCCCCCCCC(CCCCC=CCCCCC(CCCCCCCC)C(=O)OCC1(CO)CC(=C(C)C)C(=O)O1)C(=O)OCC1(CO)CC(=C(C)C)C(=O)O1 (racemic) | PRKCA | binding, [3H]PDBu competition | – | together with: phosphatidylserine 100 µg/mL | Ki | 17.4 ± 5.2 nM
C/C(=N\OCCNCC1CC1)c1ccc(C(F)(F)F)cc1 | Sigmar1 | radioligand binding | rat | – | Ki | 183 ± 8.91 nM
COC(=O)C1(c2ccccc2)C=C(C(=O)OC(C)(C)C)C(=O)CC1 (stereo not shown) | MAPK8 | docking peptide binding, competitive inhibitor, fluorescence polarization | – | together with: labelled JIP1 peptide | Ki | 18800 ± 3900 nM
CC1(C)C(=CC=C2CCCC(C=CC3=[N+](CCCCS(=O)(=O)O)c4ccc(S(=O)(=O)O)cc4C3(C)C)=C2Oc2ccc(S(=O)(=O)O)cc2)N(CCCCCC(=O)NCCCCC(NC(=O)CCCCCCC(=O)NCCCC[C@H](NC(=O)N[C@@H](CCC(=O)O)C(=O)O)C(=O)O)C(=O)O)c2ccc(S(=O)(=O)[O-])cc21 (stereo partly shown) | FOLH1 | enzyme activity, inhibitor | – | compound in water, together with: [3H]NAAG 30 nM | Ki | 0.02 ± 0.005 nM
O=C(O)CNC(=O)c1cc(C(=O)O)cc([C@H]2CCN[C@@H]2C(=O)O)c1 | Glutamate receptor ionotropic, kainate 1 | binding, radioligand binding | Sf9 membranes | homomeric receptor, together with: [3H]SYM2081 | Ki | 25200 ± 1800 nM
C#CCCCCOC(=O)[C@]1(C)C=C(C(=O)OC(C)(C)C)C(=O)CC1 | MAPK8 | D-peptide displacement, fluorescence polarization | – | – | Ki | 1600 ± 400 nM

Repeated from above:
Compound | tested on | assay | test system | conditions | measurement | result
COc1ccc(CN(C)CCO/N=C(\C)c2ccc(C(F)(F)F)cc2)cc1 | Sigmar1 | radioligand binding | rat | – | Ki | 38.2 ± 2.38 nM
CCCCCCCCC(CCCCCCC=CCCCCCCC(CCCCCCCC)C(=O)OCC1(CO)CC(=C(C)C)C(=O)O1)C(=O)OCC1(CO)CC(=C(C)C)C(=O)O1 (racemic) | PRKCA | binding, [3H]PDBu competition | – | together with: phosphatidylserine 100 µg/mL | Ki | 48.5 ± 6.3 nM
CCOc1cc(C(C)(C)C)ccc1C1=N[C@H](c2ccc(Cl)cc2)[C@H](c2ccc(Cl)cc2)N1C(=O)N1CCN(CC(=O)NCCOCCOCCOCCNC(=O)CN2CCN(C(=O)N3C(c4ccc(C(C)(C)C)cc4OCC)=N[C@H](c4ccc(Cl)cc4)[C@@H]3c3ccc(Cl)cc3)CC2=O)C(=O)C1 | E3 ubiquitin-protein ligase Mdm2, with p53 (MDM2, Homo sapiens, UniProt Q00987) | binding, fluorescence polarization competition | – | – | Ki | 9900 ± 2300 nM
Cc1cc(NC(=O)c2cccc(NC(=O)C3=CC(C)(C)CC3=O)c2)ccc1Nc1nccc(-c2cccnc2)n1 | MAPK8 | SPR two-step reversible model | – | – | Ki | 10.7 nM
COc1ccccc1N=Nc1c(O)ccc2cc(S(=O)(=O)O)ccc12 | Bcl-2-related protein A1 (Mus musculus, UniProt Q07440, C113S/P104K) | binding, inhibitor, fluorescence polarization | – | together with: FITC-labelled Noxa peptide | Ki | > 20300 nM
C=CCC1(C(=O)OC)C=C(C(=O)OC(C)(C)C)C(=O)CC1 (stereo not shown) | MAPK8 | docking peptide binding, competitive inhibitor, fluorescence polarization | – | together with: labelled JIP1 peptide | Ki | 2900 ± 700 nM
